Measurements of several laboratories.
Numbered parts are unrelated; each lists some results of a single study. Substitutions count along the parent as printed.

Series 1
Target: CCNA1, cyclin fold, Cln2 fusion (human)
Technique: yeast growth competition, sequencing
Sample: yeast
Setting: weak parent motif
Reference: not given
Reading: higher = stronger binding
Starting sequence: CENPC docking peptide (human); VKTKKRLNFDDKV; partner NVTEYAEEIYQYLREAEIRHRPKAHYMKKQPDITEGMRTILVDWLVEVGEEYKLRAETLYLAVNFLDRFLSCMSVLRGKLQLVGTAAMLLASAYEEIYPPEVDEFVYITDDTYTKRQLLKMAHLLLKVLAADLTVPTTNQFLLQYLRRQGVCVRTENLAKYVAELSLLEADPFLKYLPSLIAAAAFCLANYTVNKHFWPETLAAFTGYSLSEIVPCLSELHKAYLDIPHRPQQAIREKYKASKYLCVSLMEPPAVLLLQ
Variant | normalised enrichment score
VKTKKRLNADDKV [F9A] | 0.0337
VKTKRRLNLDDKV [K5R F9L] | 0.386
VKTKKRLNFDDKA [V13A] | -0.269
VKAKKRLNFDDKV [T3A] | 0.588
VATKKRLNFDDKV [K2A] | 0.517
VKTKRRLNFDDKV [K5R] | 1.63
VKTKARANFDDKV [K5A L7A] | 0.163
VKTKKRLNFADKV [D10A] | -0.163
VKTKARLNFDDKV [K5A] | 0.427
VKTKKRLAFDDKV [N8A] | 0.372

Series 2
Target: Histone acetyltransferase KAT6A, winged helix 2, GST fusion (KAT6A, Homo sapiens, UniProt Q92794, residues 85-181)
Technique: protein binding microarray
Form: double-stranded DNA, one strand shown
Sample: in vitro
Concentration: not given
Setting: 8-mer, flanks averaged, mean of 2 arrays, mostly near background
Reference: not given
Reading: higher = stronger binding
Construct (chain): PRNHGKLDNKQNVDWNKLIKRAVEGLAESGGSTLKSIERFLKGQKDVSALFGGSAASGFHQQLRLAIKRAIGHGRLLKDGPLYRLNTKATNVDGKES
Strand | E-score
CCGAGCAA | 0.0151
ACCGCAGG | 0.153
ATGTCAAG | -0.0368
ATGTCAAC | -0.129
ACTTGGCC | -0.0368
CTGTGACA | 0.0114
AAACCACA | -0.142
CACGACTA | -0.203
ATCGCGGG | -0.00772
CGCACGGC | 0.124
CTCTCTGC | 0.0312
ATGCTCCC | -0.099
CACTTTTC | -0.0946
CGTTTATC | -0.0162
GGGACACA | 0.0592
ACTCGGTA | -0.168
GCTAATAC | 0.185
ATAAAATG | 0.115
CTAGGTAC | -0.0601
ATATGTAA | 0.0076
GGAGTTAC | 0.028
ATTAGCTC | 0.125
ATCTTCCG | 0.114
AATGGCTC | -0.0548
GCGACTAA | 0.05

Series 3
Target: Ras GTPase-activating protein-binding protein 1, C-terminal RGG region (G3BP1, Homo sapiens, UniProt Q13283)
UniProt Q13283, sequence (whole entry, looked up): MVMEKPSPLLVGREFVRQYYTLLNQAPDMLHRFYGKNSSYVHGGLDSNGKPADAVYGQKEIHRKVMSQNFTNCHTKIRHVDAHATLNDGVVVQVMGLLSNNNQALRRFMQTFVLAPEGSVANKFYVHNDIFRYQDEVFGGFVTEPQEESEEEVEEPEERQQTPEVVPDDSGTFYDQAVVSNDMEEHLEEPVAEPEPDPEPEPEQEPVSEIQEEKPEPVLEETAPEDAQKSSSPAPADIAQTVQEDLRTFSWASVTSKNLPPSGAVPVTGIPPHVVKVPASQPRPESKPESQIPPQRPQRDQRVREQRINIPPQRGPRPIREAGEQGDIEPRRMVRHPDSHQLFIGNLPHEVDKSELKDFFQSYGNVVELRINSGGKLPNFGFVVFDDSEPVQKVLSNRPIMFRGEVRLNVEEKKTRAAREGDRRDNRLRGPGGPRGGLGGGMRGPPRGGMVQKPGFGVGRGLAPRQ
Technique: RNA Bind-n-Seq
Form: RNA
Sample: in vitro
Concentration: 1 µM
Setting: whole 134-nt RNA, ends assumed
Added: 150 mM KCl
Reference: input library
Reading: higher = stronger binding
All sequences stand within: GGGAGUUCUACAGUCCGACGAUC … UGGAAUUCUCGGGUGUCAAGG
Strand | log2 enrichment
CACAGACAACACGCACCCACACAGACACAGAGGGAAGGGGUUGGGAUGGGGACAGGGUGCACAGCAGGCCGGGGUAGGACCCCAGCCCCU | -1.23
UCAAGUCCUGUGCUACACAUCGUAUGUACCGAAUCGGGUUGGGGUUGGGUUGGGGAAAGUAUUAUGUUACGCCGUUCGGAUCUGCACUUC | 2.83
GUCCUGUGCUACACAUCGUAUGUACCGAAUCGGGGAAAAAGGGGAAAAAGGAAAAAGGAAAGUAUUAUGUUACGCCGUUCGGAUCUGCAC | -1.14
GCAGGAAGUAAAAACAAAUGGAAAUGCUUCGGAUACUGGCAGGGGUGGGGGUUGCUAAGGAAAGGGUGGGAUGGGAGUGGGUAAAGAGUU | 2.09
CCUGUGCUACACAUCGUAUGUACCGAAUCGGGGUUUUUGGGGAAAGGGGUUUUUUUGGGGAAAGUAUUAUGUUACGCCGUUCGGAUCUGC | 1.32
UCCUGUGCUACACAUCGUAUGUACCGAAUCGGGGCCCCCCGGCCCCCCGGGCCCCCCGGGAAAGUAUUAUGUUACGCCGUUCGGAUCUGC | -0.597
UCUUUAUUUGAGCCAGUCUUGCAAGGUUAACUUCUCACUGGGCCUAGUGUGGUGCCCAGGUUUUUGCCUUGCUUCACUUCUGUCUCUACA | -1.66
CCUCAAGUCCUGUGCUACACAUCGUAUGUACCGAAUCGGGGUGGGGUGGGUGGAAAGUAUUAUGUUACGCCGUUCGGAUCUGCACUUCCA | 1.32
GUCCUGUGCUACACAUCGUAUGUACCGAAUCAAACCCAAAUUUUUAAAUUUUUUUAAAAAAGUAUUAUGUUACGCCGUUCGGAUCUGCAC | -1.36
UCCUCAAGUCCUGUGCUACACAUCGUAUGUACCGAAUCGGGUGGUGGGGUGGAAAGUAUUAUGUUACGCCGUUCGGAUCUGCACUUCCAG | 0.0808
ACCAUGCAGGUGGGCAUCUUUGGGAAGUGGGGCAAGGGGGGGAUAGGGAGGGGGGUAACACUUUGGGAAUAGGUGGUCCCAGGUCGUUUC | 1.93
UCCUGUGCUACACAUCGUAUGUACCGAAUCGGGCCCCCCGGCCCCCCGGCCCCCCGGGGAAAGUAUUAUGUUACGCCGUUCGGAUCUGCA | -0.987
UGGGAGGUGGAUUUUGUUUAUUUUUUUAGCUCAUUUCCAGGGGUGGGAAUUUUUUUUUAAUAUGUGUCAUGAAUAAAGUUGUUAUUGAAA | 3.49
AGUCCUGUGCUACACAUCGUAUGUACCGAAUCGGUUUUUGGGUUUUUGGUUUUUGGGAAAGUAUUAUGUUACGCCGUUCGGAUCUGCACU | -1.5

Series 4
Target: RNA binding protein fox-1 homolog 2, RRM domain, GST-SBP tag (RBFOX2, Homo sapiens, UniProt O43251-10, residues 100-194)
Technique: RNA Bind-n-Seq
Form: RNA
Sample: in vitro
Concentration: 365 nM
Setting: natural RNA segment, single round, ends assumed
Reference: no-protein control
Reading: higher = stronger binding
All sequences stand within: GGGAGUUCUACAGUCCGACGAUC … UGGAAUUCUCGGGUGCCAA
Construct (chain): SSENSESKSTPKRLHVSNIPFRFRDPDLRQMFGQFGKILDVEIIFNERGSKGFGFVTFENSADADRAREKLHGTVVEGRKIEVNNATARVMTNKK
Strand | RBNS enrichment (R)
UCCUUAGAGAUUAAAAGCGGUCAUACAAGUAUGUUCCUAUUUCAUUUCUAUUUUUCACACCAUCACAGGACAAACCAAAGUCAACUGAAAUAAAUGACAGUUUCCAUCCC | 0.489
CUGUGCACUAGAAAGUUGCAGCCCACAGCCCUUCAUGUGGACUCUGUCAUGACAUGCUAACUAGACUUCAGGGGAGCCACUUCUGUUUUCAGCCCCUCCCUGGAAUAGUG | 0.643
UCAAAACUUCCCACCCGACUAAAUUACCAGCAGAUAAACACUCUUCUGUGUGAGUAAACCGAGAGUUACCAUGUGGCCUCCUUGUGUCUAAAUGUUCCCUCUGUUCAGCU | 0.166
UGACCUCCCAGGAAGAAAAUAGCUUCUCCUACAGUGAUUCAUGUCCCAGGUCCAGGAAAUCCAAUGUUGGUGAAGGCAGCCACUCUCUUGCUUGUCCCCAAAUCACCUAA | 0.596
UGUCAGUACCAUGUCUACCCAUUGCCAUGAACUGUGGUCUAUAGAAAGGAAGUGAAAGGUAAAUAGUCACCUACGGUCCUAGGAACCAUGCCUGCCACCUAACCACCUAC | 0.319
AGGGGUUUGCCCACUUUCCUCUUUUUGGGGUUGGUGAGAGGGCAAACCCUGAUAUUUUUACUGUGAAGGUGUUUUCAGUUGUUCUUAGGAAGAACAGCUGAUAGAAAUUC | 0.311
AACAACCACAAGAAAGGGAGAAGAGGUGCCUGUGGGAGAUUUUGCAGACCUAUUGUGGGUAUAGGUAUUUUCUUCCUGGGGAAGAAUUCAGUUCCCGUCUCAGCUGUACU | 0.513
ACAUGAGUUACUUUUAUAAAUCGAUGACCCCCCACCCCCACCCUCACGUCUUACUCUGAGGUGUGUGACAUCUUUAGUGUGUGAGAUUUGGAUUCCUAACCUUAAGUGAG | 0.311
GUGUUUUCUUAAAAAAAAAUCACAGUUACUUCUAAACCAGAUUUCAUUUCUUUUAUUGUUUUAUGUGCCAAACCACGAAGUGCAUUGGGCUUCAAUCUCUGAACACUGUA | 0.596
CCCUGUCUUCCUUUCUGGGCAAGCUCCCAUUUUAACUUUUCCCUGUUAAAAAUUGUACUGAUGUUUUAAACUCGUAACUAUACCACCCUUCUCACUGGUGUAUUUUGAAA | 1.59
GCAAGGAUCAGAGCCAGACACCAGGAGUCACAGGCCCCACCCAGGAAGGGCAUUCAGGGCCCCUGGGCACCGCUUCUGUUGAAGCAGGGGCUUCUGGGCCCCUGGGUAUC | 0.323
UCUGUCUGCCCCACUGUCCUGGGGUCGCUCUUGGGAGGCACAGGCAUGGGUGUGUCUGGCCUCAUUCUGUAUCAGUCCAGUGUGUUCCUGUCAUAGUUUGUGUCUCCCAG | 0.326

Series 5
Target: RING finger protein unkempt homolog, zinc fingers 1-6, GST-SBP tag (UNK, Homo sapiens, UniProt Q9C0B0, residues 30-357)
UniProt Q9C0B0, sequence (30-357, looked up): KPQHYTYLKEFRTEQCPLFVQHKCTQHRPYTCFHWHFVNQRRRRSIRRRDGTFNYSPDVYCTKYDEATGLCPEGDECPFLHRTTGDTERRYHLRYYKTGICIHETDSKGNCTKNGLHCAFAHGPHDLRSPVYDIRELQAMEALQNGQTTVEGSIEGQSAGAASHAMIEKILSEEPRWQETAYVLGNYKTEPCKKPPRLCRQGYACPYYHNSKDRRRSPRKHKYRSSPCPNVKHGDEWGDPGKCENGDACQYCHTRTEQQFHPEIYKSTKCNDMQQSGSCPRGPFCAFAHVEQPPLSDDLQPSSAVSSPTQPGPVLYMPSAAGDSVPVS
Technique: RNA Bind-n-Seq
Form: RNA
Sample: in vitro
Concentration: not given
Setting: RNA with constant flanks, human and mouse sites, ends assumed
Reference: input RNA pool
Reading: higher = stronger binding
All sequences stand within: GGGAGUUCUACAGUCCGACGAUC … CAACAGAGGAUUGAGCAUCA
Strand | bound/input enrichment [ratio]
ACACGAGUGGCCGUGUCCUCACCCAUGAGUCAGCACCAGUCCUACAUACAAUACUUGCAUGCUUAUCCUUACCCACAGAUGUAUGACCCCAGCCACCCUGCAUACCGGGCUGUCUCUCCU | 0.292
CAGGAGCGCGCAGGCCAAGGGCACGACAUUUUAUAAGUAUGUCAUGGAAAGUCGUGAUCCGAGUACAAAUGUUAUUCUAUUGGAGGACACUGCAGCUGUCUUAGGAGUGAUAAUAGCGGC | 3.17
AAUCCAGUGGAUAUCUUGACCUACGUGGCUUGGAAGAUAAGUGGUUUUCCCAAAAACCGUGUUAUUGGAAGCGGUUGCAAUCUGGAUUCAGCCCGAUUCCGUUACCUAAUGGGGGAAAGG | 0.23
UUUAAUGUGAUGAUGUAAUUGACGGUUUUUUAUUAUUGUGGUAGGCCUUUUAACAUUUUGUUCUUACACAUACAGUUUUAUGCUCUUUUUUACUCAUUGAAAUGUCACGUACUGUCUGAU | 0.392
GCCGGGUCCUGAGUUGGAAGAGAAGGCGCUGGUGCUGAAGCAGCUUGGGGAGACGCUGACGGAGCUCAAGGCUCAUUUCCCAGGCCUGCAGAGUAAGAUGCGGGUGGUGCUGCGCGUGGA | 0.272
UGUUUUGGCUAUUUACAACACUAGUUCUGCUCUUCCAUAAAAAUCGCAUUUUAUCUGUAUUAGUAGAUCUUCACCAAACUCUUAAGCAAUACAAUAUUCCCUCUAAUGCUUUACACACGU | 0.843
AGUUUGGGCUUUGGCUCUUACAUCAGUGAAGUAAAAGAAGUCUUACAAGAAUGCAAGACAGUAGCAUUAAAAAGAAGAAAGGCCAGUUCUCGUUUGGAAAACCUCGGCAUUCCUGAAGAG | 0.718
UCACCUGGGAGUUGGGGUCCUGCCCACCUGGAGUUUAGCACGCUGGUCGCUCACUUUGCUUUGGUCUGCACACCUGGUGUGUGCAUGUGUAUACUGCUUGUGCCAUCUGUGUACCCCUCU | 0.165
ACAGUGUUUUUGACAUACCCUGACCAUCACUUUUCUGAAAUGGAAACUCUGGGCAUUUUUUUUUUAAAGCAAUCCUUGCUUUUUUGUGAGUUUGCAGACUUUCAGCAUCUUCCAAUUGCU | 0.273
AAUGUCAUUGAUGCCAAUUUCUGUAUGAAAGGAGAAGACUUGGACUCUCAGGUUGGAGUUAUAGAUUUUUCAAUGUAUCUCAAGGACGGGAACAGCAGUAAAGGUACUGAAGGAGACGGU | 0.495
GCCCUCAAUUUUUCUGUGUUCUACUAUGAGAUCCAGAAUGCACCAGAGCAAGCCUGCCUCUUAGCCAAACAAGCCUUCGAUGAUGCUAUAGCUGAGCUGGACACAUUAAACGAGGAUUCC | 0.28

For quick reference, copied from above (series 3):
Strand | log2 enrichment
UCCUCAAGUCCUGUGCUACACAUCGUAUGUACCGAAUCGGGUGGUGGGGUGGAAAGUAUUAUGUUACGCCGUUCGGAUCUGCACUUCCAG | 0.0808
GUCCUGUGCUACACAUCGUAUGUACCGAAUCGGGGAAAAAGGGGAAAAAGGAAAAAGGAAAGUAUUAUGUUACGCCGUUCGGAUCUGCAC | -1.14
GCAGGAAGUAAAAACAAAUGGAAAUGCUUCGGAUACUGGCAGGGGUGGGGGUUGCUAAGGAAAGGGUGGGAUGGGAGUGGGUAAAGAGUU | 2.09
CACAGACAACACGCACCCACACAGACACAGAGGGAAGGGGUUGGGAUGGGGACAGGGUGCACAGCAGGCCGGGGUAGGACCCCAGCCCCU | -1.23
ACCAUGCAGGUGGGCAUCUUUGGGAAGUGGGGCAAGGGGGGGAUAGGGAGGGGGGUAACACUUUGGGAAUAGGUGGUCCCAGGUCGUUUC | 1.93
UCAAGUCCUGUGCUACACAUCGUAUGUACCGAAUCGGGUUGGGGUUGGGUUGGGGAAAGUAUUAUGUUACGCCGUUCGGAUCUGCACUUC | 2.83
AGUCCUGUGCUACACAUCGUAUGUACCGAAUCGGUUUUUGGGUUUUUGGUUUUUGGGAAAGUAUUAUGUUACGCCGUUCGGAUCUGCACU | -1.5
UCUUUAUUUGAGCCAGUCUUGCAAGGUUAACUUCUCACUGGGCCUAGUGUGGUGCCCAGGUUUUUGCCUUGCUUCACUUCUGUCUCUACA | -1.66
